Experimental data from different studies.
Protocols differ between the studies behind these lines. Values joined by “and” are separate records of one study, mostly repeats; a detail may differ. ± gives the spread as reported.
B1: BASP1; sequence looked up; chain GGKLSKKKKGYNVNDEKAKEKDKKAEGAATEEEGTPKESEPQAAAEPAEAKEGKEKPDQDAEGKAEEKEGEKDAAAAKEEAPKAEPEKTEGAAEAKAEPPKAPEQEQAAPGPAAGGEAPKAAEAAAAPAESAAPAAGEEPSKEEGEPKKTEAPAAPAAQETKSDGAPASDSKPGSSEAAPSSKETPAATEAPSSTPKAQGPAASAEEPKPVEAPAANSDQTVTVKE
B2: aldolase A; sequence looked up; chain PYQYPALTPEQKKELSDIAHRIVAPGKGILAADESTGSIAKRLQSIGTENTEENRRFYRQLLLTADDRVNPCIGGVILFHETLYQKADDGRPFPQVIKSKGGVVGIKVDKGVVPLAGTNGETTTQGLDGLSERCAQYKKDGADFAKWRCVLKIGEHTPSALAIMENANVLARYASICQQNGIVPIVEPEILPDGDHDLKRCQYVTEKVLAAVYKALSDHHIYLEGTLLKPNMVTPGHACTQKFSHEEIAMATVTALRRTVPPAVTGITFLSGGQSEEEASINLNAINKCPLLKPWALTFSYGRALQASALKAWGGKKENLKAAQEEYVKRALANSLACQGKYTPSGQAGAAASESLFVSNHAY

`glucagon`: “arterial plasma concentration” 24.3 ± 1.4 pg/mL (ELISA; human, non-diabetic, femoral artery plasma; baseline).
For `pertussis toxin`, the p-PKC level was 17.6 MFI (immunostaining; humanized mouse, SAH model, meningeal F4/80+ macrophages; dose not given).
For `hexaarginine`, the koff was 1670 ± 160 s⁻¹ (PorA peptide pore; peptide binding, planar bilayer single-channel recording; 0.5 µM, pH 7.4, -10 mV, cis side, 150 mM KCl).
For `amyloid β-peptide (1–28)`, the remaining substrate was 28.7 ± 3.1% (substrate, LC-MS; phosphate buffer; 10 µM, 8 h, pH 7.4, 25 °C, added: MINP(β1–14) 1 equiv).
`HVLVMSATRR` — result for “bicarbonate (total CO2)”: 19 mmol/L and 22 mmol/L and 24 mmol/L (peptide, C57BL/6J mice, male, serum; subcutaneous osmotic pump, 3 mg/kg/day peptide basis, 8 weeks).
Under “log2 fold change”, `B1 (BASP1)` is recorded as -0.0759 (peptide binding, SILAC pull-down; concentration not given; relative to: non-acetylated over acetylated NIT1 peptide).
For `GWTLNSAGYLLGPHAVDNHRSFNDKHGFT-NH2 (C-amide)`, the colon length was 4.7 cm and 5 cm and 4.8 cm and 5.2 cm and 5.8 cm (peptide, Gnaq intestinal cKO mice, DSS colitis; ip, 3 µM, 2% DSS).
`aspterric acid` has an inhibition of 98.9% (hypocotyl length; Arabidopsis thaliana Col-0 seeds; 50.0 µg/mL, 7 days, dark).
Under “log2 fold change”, `AIMEMPSFYSHGLPR (ADAR protein)` is recorded as 0.318 (peptide binding, SILAC pull-down; concentration not given; relative to: non-acetylated over acetylated NIT1 peptide).
For `colistin`, “CFU relative to caspofungin alone” read 1.11 and 0.904 and 1.23 (Aspergillus fumigatus; conidia; 40 µM, added: caspofungin 0.2 µg/mL; relative to: caspofungin alone).
For `heparin sodium`, “drug-related decreased neutrophil” read 25% (healthy Chinese adult volunteers; continuous intravenous infusion, 8 IU/kg/h, 5 days).
`B2 (aldolase A)` — result for “log2 fold change”: -0.871 (peptide binding, SILAC pull-down; concentration not given; relative to: non-acetylated over acetylated NIT1 peptide).
`insulin human` has a fold change of 1.22 (refers to: PCLO mRNA; uninfected mouse, brain; i.p., dose not given; relative to: PBS).
`nonaarginine` gave a koff of 66.7 ± 7 s⁻¹ (PorA peptide pore; peptide binding, planar bilayer single-channel recording; 0.5 µM, pH 7.4, -15 mV, cis side, 150 mM KCl).
With `Polymyxin B` the survival was 100% (mouse; intraperitoneal, 20 mg/kg single dose, day 7).
The IC50 of `(−)-antroquinonol A` is reported as > 25 µM (PANC-1; cytotoxicity, MTS; 72 h).

Excerpt of the above:
`insulin human` has a fold change of 1.22 (refers to: PCLO mRNA; uninfected mouse, brain; i.p., dose not given; relative to: PBS).
`nonaarginine` gave a koff of 66.7 ± 7 s⁻¹ (PorA peptide pore; peptide binding, planar bilayer single-channel recording; 0.5 µM, pH 7.4, -15 mV, cis side, 150 mM KCl).
